Measurements collected from several papers.
Each line is one published result; not all experiments were run side by side. Values joined by “and” are separate records of one study, mostly repeats; a detail may differ. ± gives the spread as reported.

Structure (SMILES) | test | test system | conditions | how to read | quantity | value
C[C@H]1O[C@@H](O[C@H]2CC[C@@]3(C)[C@@H](CC[C@]4(C)[C@@H]3C=C[C@]35OC[C@@]6(CCC(C)(C)C[C@H]63)[C@@H](O)C[C@]54C)[C@]2(C)CO)[C@H](O)[C@@H](O[C@@H]2O[C@H](CO)[C@@H](O)[C@H](O)[C@H]2O)[C@H]1O | – | chronic-plus-binge ethanol mice, plasma | oral, 10 mg/kg/day for 7 d, 168 h | – | ALT activity | 22 U/L and 29.7 U/L and 30.2 U/L and 25.4 U/L and 27.8 U/L
[Cl-].[Cl-].[Pt+2].[Ru+2].c1ccc(-c2nccnc2-c2ccccn2)nc1.c1cnc2c(c1)ccc1cccnc12.c1cnc2c(c1)ccc1cccnc12 | chloride substitution, UV-vis kinetics | aqueous buffer | concentration not given, pH 7.2, second substitution step, added: guanosine 5'-monophosphate | – | negative activation entropy | 143 ± 9 J/(mol·K)
O=C1N(Cc2ccccc2Cl)c2ccccc2C12NN=C(c1ccccc1)S2 (stereo not drawn) | – | PC-3 xenograft, mouse | intravenous, 676 mg/kg total, subcutaneous xenograft | reference: vehicle | T/C | > 100%
C[C@H](Oc1ccc(Br)cc1-c1ccon1)C(=O)O | MVRC latency | human, tibialis anterior muscle | 1200 mg, SAD | – | difference from placebo | 0.14 ms
Cc1ccc(C(=O)OCc2ccc([C@@H](CN)C(=O)Nc3ccc4cnccc4c3)cc2)c(C)c1 | tonometry | NZW rabbit, magnetic bead-induced ocular hypertension | ocular, 0.02%, 32 h | – | IOP | 34.4 mmHg
CSCCNc1nc(SCCC(F)(F)F)nc2c1ncn2[C@@H]1O[C@H](COP(=O)(O)OP(=O)(O)C(Cl)(Cl)P(=O)(O)O)[C@@H](O)[C@H]1O | light transmittance aggregometry | human patients, platelet-rich plasma | dose not given, 1 h, added: ADP 20 µM | reference: patients | patients with IPA above 90% | 0%
COc1nnc2ccc(N3CCC(c4ccc(OCCN5CCN(C)C(=O)[C@H]5C)cc4)CC3)nn12 | – | patients | 5 mg twice daily, monotherapy and combination cohorts | – | time HEXIM1 above threshold | 4.87 h
C[C@@H](O)CCOC(=O)C[C@@H](C)O | measured: C18 acylcarnitine | human, plasma | 60 min, log2-transformed values | – | metabolite level | -4.59 ± 0.4 µmol/L
CC(c1cc2ccccc2s1)N(O)C(N)=O (stereo not drawn) | measured: 12-HEPE | human whole blood | 3 µM, added: A23187 | – | amount | 172 ± 27 pg/mL blood
CC[C@@H]1[C@H](F)C(=O)N[C@@H]1COc1nccc2cc(C(N)=O)c(OC)cc12 | ATP-site probe binding, ActivX profiling, measured: PKD1, PKD2 | THP-1 cell lysate | 0.01 mM, Lys2 site | – | inhibition | -7.2%
Cc1n[nH]c2ccc(-c3cc(OC[C@@H](N)Cc4ccccc4)cnc3-c3ccoc3)cc12 | kinase binding, competitor, MIB/MS competition, measured: NPR1 | Candida albicans cell lysate | 10 µM | reference: DMSO | log2 fold change | -0.75
CCCCC1(CCCC)CN(c2ccccc2)c2cc(SC)c(OCC(=O)N[C@@H](C(=O)NCC(=O)O)c3ccccc3)cc2S(=O)(=O)C1 | measured: 7α-hydroxy-4-cholesten-3-one | human, plasma | 5 mg once daily, day 1 | – | plasma C4 | 25.8 ng/mL
N=C(N)NCCC[C@H](NC(=O)[C@H](CCCNC(=N)N)NC(=O)[C@H](CCCCN)NC(=O)[C@H](CCC(N)=O)NC(=O)[C@H](CCCCN)NC(=O)[C@H](Cc1ccc(O)cc1)NC(=O)[C@@H](N)CCCCN)C(=O)N[C@@H](CO)C(=O)N[C@@H](Cc1ccc(O)cc1)C(=O)N[C@@H](CCCCN)C(=O)O | – | dentin hypersensitivity patients | 2.5 µg/tooth single, day 22 | reference: baseline | median cold water VAS change | -35.5 mm
O[C@H]1CCCN[C@@H]1CCCn1cnc2c(Cl)c(Cl)ccc21 | ELISA, measured: Pro-C6 | healthy human volunteers, serum | intraduodenal, 100 mg twice daily, day 14, multiple ascending dose | – | AUC(0-tau) | 117 ng·h/mL
C[C@H]1C[C@H]2CSC(N)=N[C@@]2(c2nc(NC(=O)c3ccc(OC(F)F)cn3)cs2)CO1 | measured: total Aβ | healthy adults, plasma | 15 mg once daily, day 4 | reference: placebo | percent change from baseline | -45.8%
CN(C(=O)n1cnc(-c2ccc[n+]([O-])c2)c1)C1CCCCC1 | measured: OEA | human, plasma | 5 mg once daily, day 10 | – | AUC(0-tau) | 274 ng·h/mL
OC[C@H]1O[C@@H](c2ccc(F)c(Cc3cc4ccccc4s3)c2)[C@H](O)[C@@H](O)[C@@H]1O | continuous glucose monitoring | Japanese type 1 diabetes patients | 50 mg/day, day 1 | reference: baseline | time glucose at most 70 mg/dL | 4.82 ± 12.5 % change
CC(C)C[C@@H](NC(=O)[C@H](C)NC(=O)CNC(=O)[C@@H](NC=O)C(C)C)C(=O)N[C@@H](C)C(=O)N[C@@H](C(=O)N[C@H](C(=O)N[C@@H](C(=O)N[C@@H](Cc1c[nH]c2ccccc12)C(=O)N[C@H](CC(C)C)C(=O)N[C@@H](Cc1cccc2cc[nH]c12)C(=O)N[C@H](CC(C)C)C(=O)N[C@@H](Cc1c[nH]c2ccccc12)C(=O)N[C@H](CC(C)C)C(=O)N[C@@H](Cc1c[nH]c2ccccc12)C(=O)NCCO)C(C)C)C(C)C)C(C)C | H+/Na+ transport, pyranine pH-gradient | EYPC/cholesterol LUVs 2:1 | – | – | EC50 | 14.2 ± 7.78 nM

Excerpt of the above:
Structure (SMILES) | test | test system | conditions | how to read | quantity | value
O[C@H]1CCCN[C@@H]1CCCn1cnc2c(Cl)c(Cl)ccc21 | ELISA, measured: Pro-C6 | healthy human volunteers, serum | intraduodenal, 100 mg twice daily, day 14, multiple ascending dose | – | AUC(0-tau) | 117 ng·h/mL
C[C@H]1C[C@H]2CSC(N)=N[C@@]2(c2nc(NC(=O)c3ccc(OC(F)F)cn3)cs2)CO1 | measured: total Aβ | healthy adults, plasma | 15 mg once daily, day 4 | reference: placebo | percent change from baseline | -45.8%
CN(C(=O)n1cnc(-c2ccc[n+]([O-])c2)c1)C1CCCCC1 | measured: OEA | human, plasma | 5 mg once daily, day 10 | – | AUC(0-tau) | 274 ng·h/mL
